Results collected from several papers.
Lines come from different studies, so protocols differ. Numbers after ± are the reported error.
UCHL1: Ubiquitin carboxyl-terminal hydrolase isozyme L1 (UCHL1, Homo sapiens, UniProt P09936)
Sequence of UniProt P09936 (whole entry, looked up): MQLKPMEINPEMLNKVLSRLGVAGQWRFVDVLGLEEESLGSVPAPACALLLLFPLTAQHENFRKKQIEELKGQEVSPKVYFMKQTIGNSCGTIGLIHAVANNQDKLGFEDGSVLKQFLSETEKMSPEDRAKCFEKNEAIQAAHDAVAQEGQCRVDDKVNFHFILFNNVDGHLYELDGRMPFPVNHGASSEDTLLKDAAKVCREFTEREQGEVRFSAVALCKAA
Sequence of UniProt Q07794 (whole entry, looked up): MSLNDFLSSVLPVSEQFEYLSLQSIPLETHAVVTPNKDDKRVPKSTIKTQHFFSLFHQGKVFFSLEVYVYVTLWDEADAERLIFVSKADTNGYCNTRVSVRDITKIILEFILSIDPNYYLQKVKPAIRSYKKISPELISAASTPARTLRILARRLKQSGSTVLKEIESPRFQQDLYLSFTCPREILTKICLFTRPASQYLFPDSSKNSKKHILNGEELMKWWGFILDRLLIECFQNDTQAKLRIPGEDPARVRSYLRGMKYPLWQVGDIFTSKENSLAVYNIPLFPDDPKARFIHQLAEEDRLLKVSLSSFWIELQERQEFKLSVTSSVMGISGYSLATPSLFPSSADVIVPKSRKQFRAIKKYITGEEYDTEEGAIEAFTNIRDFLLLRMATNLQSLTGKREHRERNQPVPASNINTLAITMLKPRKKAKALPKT

The IC50 of `COc1ccc(Sc2nsc(N)n2)cc1` is reported as greater than 125 µM (Histone acetyltransferase RTT109, with Vps75 (Saccharomyces cerevisiae, UniProt Q07794); enzyme activity, inhibitor, HTS, CPM-based, dose response).
The labelling of `COC(=O)C#Cc1ccccc1[N+](=O)[O-]` is reported as 8.03% (UCHL1; covalent, intact protein LC-MS; 12.5 µM).
`COc1ccc(NC(=O)c2c(Nc3ccccc3)sc(C(=O)NN=Cc3ccc(OC)c(O)c3)c2NC(C)=O)cc1` — result for “cells in G2/M”: 19.4 ± 2.24% (HepG2; flow cytometry; IC50, 24 h).
For `CC(=O)c1nn(-c2ccc(Cl)cc2)/c(=N/N=C(\C)c2ccc(NC(=O)c3ccc(Cl)cc3)cc2)s1`, the toxicity was 8.04% (HepG2; 2.5 µM).
With `Fc1ccccc1N1CCN(C2CCCN(Cc3cccc(C(F)(F)F)c3)C2)CC1` (stereo not drawn) the inhibition was 0.4% (Trypanosoma cruzi; reporter translation, Renilla luciferase mRNA translation; cell-free extract; 40 µM; reference: DMSO).
For `CC(C)(C)c1cc(O)ccc1O`, “point of departure” read 16.2 µM (HepG2; extracellular flux, measured: oxygen consumption rate; 1 h, representative mode).
`COc1ccc(NC(=O)c2c(Nc3ccccc3)sc(C#N)c2NC(=O)CNc2ccc(Cl)cc2)cc1` gave a viable cells of 81.4 ± 9.3% (HepG2; annexin V-FITC/PI; concentration not given).
The cytotoxicity of `CC(=O)c1nn(-c2ccc(C)cc2)/c(=N/N=C(\C)c2ccc(NC(=O)c3ccccc3)cc2)s1` is reported as 93.2% (HepG2; MTT; 10 µM).
The inhibition of `Clc1ccc(Cn2cc(-c3ccccc3)[n+]3c2CCC3)cc1Cl.[Cl-]` is reported as -10.3% (Trypanosoma cruzi; reporter translation, Renilla luciferase mRNA translation; cell-free extract; 40 µM; reference: DMSO).
`Nc1ccn([C@H]2CC[C@@H](CO)O2)c(=O)n1` — result for “mitochondrial DNA content”: 76.9 ± 12.8% (HepG2; qPCR; 0.2 µM, 10 days, 1; reference: untreated).
The labelling of `N#CC(=Cc1ccc(O)c(O)c1)C(=O)Nc1cccc(Cl)c1Cl` is reported as 10% (UCHL1; covalent, intact protein LC-MS; 12.5 µM).
For `CCOC(=O)/C=C\C(=O)OCC`, “point of departure” read 22.4 µM (HepG2; high content imaging, measured: cell count; 24 h, representative mode).
`CC(=O)Nc1ccc(/C(C)=N/N=c2\sc(C(C)=O)nn2-c2ccc(C)cc2)cc1` gave a cytotoxicity of 0.0454% (HepG2; MTT; 0.312 µM).
`COc1ccc(-n2nc(C(C)=O)s/c2=N\N=C(/C)c2ccc(NC(=O)c3ccccc3)cc2)cc1` gave a viability of 25.6% (HepG2; 1.25 µM).
`CCOC(=O)c1nn(-c2cccc(Cl)c2)/c(=N/N=C(\C)c2ccc(NC(=O)c3ccccc3)cc2)s1` gave a cytotoxicity of 96.5% (HepG2; MTT; 0.312 µM).
Under “point of departure”, `CCc1ccc(CCOc2ccc(CC3SC(=O)NC3=O)cc2)nc1` (stereo not drawn) is recorded as 81.3 µM (HepG2; CellTiter-Glo, measured: cellular ATP; 24 h, distribution mode 2).
`CC(=O)c1nn(-c2ccccc2Cl)/c(=N/N=C(\C)c2ccc(NC(=O)c3ccccc3)cc2)s1` gave a cytotoxicity of 94.2% (HepG2; MTT; 1.25 µM).
Under “point of departure”, `O=C(O)Cc1ccccc1Nc1c(Cl)cccc1Cl` is recorded as 219 µM (HepG2; measured: HIF1alpha level; 6 h, mode 2 of PoD distribution).
